Experimental data collected from several papers.
Protocols differ between the studies behind these lines. “And” joins repeats or separate records; there may be more than shown.
CDK2 with cyclin E: Cyclin-dependent kinase 2, with cyclin E (CDK2, Homo sapiens, UniProt P24941)
CDK2: Cyclin-dependent kinase 2 (CDK2, Homo sapiens, UniProt P24941)
CDK2 with cyclin A: Cyclin-dependent kinase 2, with cyclin A (CDK2, Homo sapiens, UniProt P24941)
CDK2 with cyclin A1: Cyclin-dependent kinase 2, with cyclin A1 (CDK2, Homo sapiens, UniProt P24941)

O=C=[N][Ru-4]123([n]4c5ccc(O)cc5c5c6c(c7cc(F)c[n+]1c7c54)C(=O)NC6=O)[S+]1CC[S+]2CC[S+]3CC1 (centres unmarked)  remaining activity (CDK2 with cyclin E; enzyme activity; 100 nM, human enzyme, together with: 10 µM ATP; relative to: untreated): 103%
COc1cc(Nc2nccc(-c3cnn4nc(OC)ccc34)n2)cc(C(F)(F)F)c1  remaining binding (CDK2; binding, competition with immobilised ligand; 1 µM): 100%
COc1ccc(NC(=O)Nc2ccc3c(c2)C(=O)N(C(C)CO)CC(C)C(CN(C)Cc2ccc4c(c2)OCO4)O3)cc1 (centres unmarked)  remaining binding (CDK2; binding, competition with immobilised ligand; 10 µM): 100%
O=c1c(-c2ccc(Cl)c(CN3CCOCC3)c2)coc2cc(O)ccc12  remaining activity (CDK2 with cyclin A; enzyme activity, inhibitor; 1 µM): 113%
O=C(Cc1ccc(OCc2ccccc2)cc1)NC1(C(=O)O)CCN(C(=O)c2ccc(-c3cccc(Cl)c3)cc2)CC1  activity vs control (CDK2 with cyclin A; enzyme activity, inhibitor; 10 µM): 122%
Cc1cccc(O[C@H]2CCC[C@@H](C(C)CNCc3ccncc3)C2)c1 (relative stereo)  inhibition (CDK2; kinase activity, kinome panel screening; 1 µM): -3%
CNC1C[S+]2CC[S+]3CC[S+](C1)[Ru-4]321([N]=C=S)[n]2c3ccc(OC)cc3c3c4c(c5cc(F)c[n+]1c5c32)C(=O)NC4=O (centres unmarked)  remaining binding (CDK2; KinomeScan; 0.1 µM; relative to: untreated): 97%
O=C(O)CCC(=O)c1cccc(NS(=O)(=O)c2c[nH]c3ncccc23)c1  remaining activity (CDK2 with cyclin A; kinase activity, radiometric; 10 µM): 106%
NC(=O)C[C@H]1CCc2sc3ncnc(O[C@H]4CC[C@H](N5CCOCC5)CC4)c3c21  inhibition (CDK2 with cyclin A; enzyme activity, inhibitor; 10 µM): 19%
COc1c(OCCCN2CCOCC2)ccc2c1N=C(NC(=O)c1cnc(N)nc1)N1CCN=C21  remaining activity (CDK2 with cyclin E; kinase activity, inhibitor; 1 µM; relative to: untreated control): 102%
CN1CCN(Cc2ccc(NC(=O)c3cccc(C#Cc4cnc(N)c5ncccc45)c3)cc2C(F)(F)F)CC1  remaining binding (CDK2; cell-free assay, competition with immobilised ligand; 0.5 µM): 94%
Cc1cc(C)nc(Nc2ccc([C@@H]3CCCN(C(=O)/C=C/c4csc(C)n4)C3)nc2)n1  activity vs control (CDK2; enzyme activity, inhibitor, ADP detection; 1 µM): 95%
CN1C[C@@H](c2c[nH]c3cc(Br)ccc23)NC[C@@H]1c1c[nH]c2cc(Br)ccc12  remaining activity (Cyclin-dependent kinase 2, with cyclin E1 (CDK2, Homo sapiens, UniProt P24941); enzyme activity, inhibitor; 10 µM): 101%
C=CC(=O)Nc1cccc(-c2cnc3[nH]cc(C(=O)NC(C)(C)C)c3n2)c1  inhibition (CDK2 with cyclin E; enzyme activity, inhibitor; 0.1 µM): 21%
CNC(=O)C1CCCN(C(=O)C2CC3CCC2N3C(=O)[C@@H]2C[C@@H](O)CN2C(=O)NCc2cccc(Cl)c2F)C1 (mixture of isomers)  protein reduction (CDK2; degrader, Western blot; A549; concentration not given, 48 h; relative to: DMSO): > 50%
Nc1nc(Nc2ccccc2)sc1C(=O)c1ccccc1  remaining activity (CDK2 with cyclin A; enzyme activity, inhibitor; 10 µM): 2%
Cc1cc(C)nc(Nc2ccc([C@@H]3CCCN(C(=O)/C=C/c4c(C)nn(C)c4C)C3)nc2)n1  activity vs control (CDK2; enzyme activity, inhibitor, ADP detection; 1 µM): 104%
CCn1cc(C(=O)O)c(=O)c2c(N)c(F)c(NC3CCCCC3)cc21  inhibition (Cyclin-dependent kinase 2, with cyclin A2 (CDK2, Homo sapiens, UniProt P24941); kinase activity; 0.1 µM, together with: ATP at Km): 41%
Cc1ccc(-c2c(/C=C(\C#N)C(=O)NC(C)C)n(CCCO)c3ncnc(N)c23)cc1  remaining binding (CDK2; cell-free assay, competition with immobilised ligand; 1 µM): 82%
CC(C)=CC1OC(C)(C)C2C=C3C(=O)C(Cl)=CC(O)C3C3C(O)C4OC4C(=O)C132 (centres unmarked)  remaining binding (CDK2; cell-free assay, competition with immobilised ligand; 10 µM): 89%
Cc1cccc(-c2ccc3nc(NC(=O)C4CCCO4)nn3c2)c1 (centres unmarked)  remaining activity (CDK2 with cyclin A; enzyme activity, Dundee kinase panel; 10 µM): 105%
Cc1cnc2nc1Nc1cccc(c1)COC/C=C/COCc1cc(ccc1OCCN1CCOCC1)N2  remaining signal (CDK2; cell-free assay; 0.1 µM): 97%
CN1CCN(Cc2ccc(-c3ccc(CO[C@H]4CCC[C@@H]4NC(=O)c4cc(-c5cnn(C)c5)cnc4N)cc3)cc2)CC1  inhibition (CDK2 with cyclin A1; enzyme activity, inhibitor; 0.1 µM): -4%
CNC(=O)C[C@H](Cc1ccc(C#N)cc1)NC(=O)c1cc(-c2ccc(CN[C@H](C)c3ccc(C)cc3)o2)ccc1Cl  activity vs control (CDK2 with cyclin A; enzyme activity, inhibitor; 1 µM): 105%
COCC12C(=O)NC3C4(C(OC)CC1O)C1CC5(O)C(OC)C(O)C(OC(C)=O)(C1C5OC(=O)c1ccccc1)C3(O)C(OC)C24 (centres unmarked)  remaining activity (CDK2 with cyclin E; kinase activity, inhibitor, ProQinase kinase profiling; 25 µM; relative to: control): 98% and 105%
C=CC(=O)N1CCCC(n2c(=O)c3ncccc3n(Cc3ccc(Oc4ccccc4)cc3)c2=O)C1 (centres unmarked)  remaining binding (CDK2; cell-free assay, competition with immobilised ligand; 1 µM): 100%
C=CC(=O)N1Cc2nc(-c3cc(-c4cc(Cl)cnc4Cl)c(F)cc3F)n(-c3ccncn3)c2C1  inhibition (CDK2 with cyclin A1; cell-free assay, inhibitor; 1 µM): -4.9%
Cc1cccc(-c2ccc3nc(NC(=O)C4CCCCC4)nn3c2)c1  remaining activity (CDK2 with cyclin A; enzyme activity, Dundee kinase panel; 10 µM): 101%
CNS(=O)(=O)Nc1nccc(Cc2c(C)c3ccc(Oc4ncccc4F)cc3oc2=O)c1F  remaining binding (CDK2; binding, competition with immobilised ligand; 10 µM): 100%

Some of these lines once more:
Nc1nc(Nc2ccccc2)sc1C(=O)c1ccccc1  remaining activity (CDK2 with cyclin A; enzyme activity, inhibitor; 10 µM): 2%
Cc1cc(C)nc(Nc2ccc([C@@H]3CCCN(C(=O)/C=C/c4c(C)nn(C)c4C)C3)nc2)n1  activity vs control (CDK2; enzyme activity, inhibitor, ADP detection; 1 µM): 104%
CCn1cc(C(=O)O)c(=O)c2c(N)c(F)c(NC3CCCCC3)cc21  inhibition (Cyclin-dependent kinase 2, with cyclin A2 (CDK2, Homo sapiens, UniProt P24941); kinase activity; 0.1 µM, together with: ATP at Km): 41%
